Results of several laboratories.
Each line is one published result; not all experiments were run side by side. ± gives the spread as reported.
Cell line: HepG2

O=C(NNc1nc(-c2ccccc2)cs1)c1cc2c(ccc3ccccc32)oc1=O gave an IC50 of 73.5 µM (cell growth or viability, SRB; 72 h).
The IC50 of COc1cc(/C=N/NC(=O)c2cc3cc(Nc4nccc(-c5cccnc5)n4)ccc3[nH]2)cc(OC)c1 is reported as 7.66 µM (cell growth or viability, MTT; 48 h).
C[S+](C)([O-])[Pt-2]([Cl])([Cl])[N+](=Cc1ccc[nH]1)Cc1ccccc1 has an IC50 of 0.3 µg/mL (cell growth or viability, MTT; 24 h).
Clc1nc2ccccc2cc1-c1nc2cc(Br)ccc2[nH]1 has an IC50 of 28.2 µM (cell growth or viability, MTT; 48 h).
Cc1cc(C=O)cc(C)c1Oc1cc(Nc2ccc(C#N)cc2)nc2cnccc12 gave an IC50 of greater than 127 µM (48 h).
C[C@@H]1O[C@@H](O[C@H]2[C@H](O[C@H]3CC[C@@]4(C)[C@@H](CC[C@]5(C)[C@@H]4CC=C4[C@@H]6CC(C)(C)CC[C@]6(C(=O)O)CC[C@]45C)[C@]3(C)CO)OC[C@H](O)[C@@H]2O)[C@H](O)[C@H](O)[C@H]1O has an IC50 of 0.75 µM (NF-κB activity, inhibitor, luciferase; TNF-stimulated).
The IC50 of CN(C)C(=NN=C(c1ccccc1)c1ccccn1)[S][Ga]([Cl])[Cl] is reported as 0.34 µM (cell growth or viability, MTT; 48 h).
The IC50 of O=C(/C=C(O)/C=C/c1cccs1)/C=C/c1cccs1 is reported as greater than 75 µM (cell growth or viability, MTT; 72 h).
CCOc1cccc2c1[O][Pt-2]1([Cl])[N+](=C2)c2ccccc2[NH+]1c1ccccc1 (stereo not drawn) gave an IC50 of 10.2 ± 0.24 µM (cell viability, MTT; 48 h).
The IC50 of N#Cc1cccc(-c2ccc(=O)n(Cc3cccc(-c4ncc(OCC5CCN(CC(=O)NCCOCCOCCOCCNc6ccc7c(c6)C(=O)N(C6CCC(=O)NC6=O)C7=O)CC5)cn4)c3)n2)c1 (stereo not drawn) is reported as 0.672 µM (cell growth or viability, CCK-8; 72 h).
With Cn1[c]([Ir-3]234([NH3+])[n]5c6ccc5C(c5c(F)c(F)c(F)c(F)c5F)=C5C=CC(=[N+]52)C(c2c(F)c(F)c(F)c(F)c2F)=c2ccc([n]23)=C(c2c(F)c(F)c(F)c(F)c2F)C2=[N+]4C(=C6c3c(F)c(F)c(F)c(F)c3F)C=C2)[n+](C)c2ccccc21.F[P-](F)(F)(F)(F)F the IC50 was 1.6 µM (cell growth or viability, MTT; 72 h).
For Cc1cc(O)c2c(C(=O)[O-])[n+]3n(c2c1)CCCC3, the IC50 was greater than 50 µM (cell growth or viability, CCK-8; 24 h).
Cc1c(C)c(-c2ccc(-c3ccccc3)cc2)[c-](C)c1C.Cc1c(C)c(-c2ccc(-c3ccccc3)cc2)[c-](C)c1C.[Cl-].[Cl-].[Cl-].[Cl-].[Ir+3].[Ir+3] (stereo not drawn) gave an IC50 of greater than 50 µM (cell growth, MTT; 24 h).
With C=C1C(=O)[C@@]23CC[C@@H]4[C@](C)(COC(C)=O)CCC[C@@]4(COC(C)=O)[C@@H]2[C@@H](O)C[C@@H]1C3 the IC50 was 5.5 µM (cell growth or viability, MTT).
With COc1ccc(/C=C/C(=O)/C=C/c2cn(-c3ccccc3)nc2C(=O)O)c(OC)c1 the IC50 was greater than 25 µM (cell growth; 72 h).
COc1ccccc1CNC(=O)CCn1c(=O)[nH]c2ccsc2c1=O gave an IC50 of greater than 50 µM (cell growth or viability, MTT).
For Cc1ccc2nc(Cl)c(-c3nc4cc(Br)ccc4[nH]3)cc2c1, the IC50 was greater than 100 µM (cell growth or viability, MTT; 48 h).
With COC1=CC(c2ccc[nH]2)=NC12OC(C)CC1CCCCCCCc3ccc([nH]3)C12 (stereo not drawn) the IC50 was 4.17 µM (cell growth or viability).
COCCOCCSc1nc(N)c2c(F)c(C#N)c(F)c(Cl)c2n1 gave an IC50 of 14.9 µM (cell growth or viability, MTT; 96 h).
C/C(=N\NC(=S)N(C)C)c1ccc(S(=O)(=O)N2CCC(C)CC2)cc1 gave an IC50 of 10.1 µM (cell growth or viability, MTT).
The IC50 of CC(=O)O[C@H]1CC[C@]2(C)[C@H]3CC=C4[C@@H]5[C@@H](C)[C@H](C)CC[C@]5(C(=O)O)CC[C@@]4(C)[C@]3(C)CC[C@H]2C1(C)C is reported as 71.3 µM (cell growth or viability, MTT; 24 h).
For C[C@]12CC[C@@H]3c4ccc(O)cc4CC[C@H]3[C@@H]1CC[C@@]2(O)c1cn(CC(=O)c2ccc(Br)cc2)nn1, the IC50 was 20.4 µM (cell growth or viability, resazurin; 72 h).
With CCOC(=O)C/C(C)=N/NC(=O)c1nc2ccccc2n(C)c1=O the IC50 was 13.8 µM (cell growth or viability, MTT; 48 h).
The IC50 of CC(=O)N[C@@H]1[C@@H](OC(C)=O)[C@H](OC(C)=O)[C@@H](COC(C)=O)O[C@H]1Sc1nnc(-c2cc3ccccc3[nH]2)n1-c1ccccc1 is reported as no less than 50 µM (cell growth or viability, MTT).
CC(C)Cn1cc(-c2ccnc(Nc3ccc(N4CCN(CCCCCCC(=O)NO)CC4)cc3)n2)nn1 has an IC50 of 7.92 µM (cell growth or viability, SRB; 72 h).
The IC50 of C=CC(OC(C)=O)c1cc(OC)cc(OC)c1 (stereo not drawn) is reported as greater than 50 µM (MTT; 24 h).
The IC50 of C[C@@H]1C(=O)CC[C@@H]2[C@]1(C)CC[C@H]1[C@@]2(C)CC[C@@]2(C)[C@@H]3CC(C)(C)CC[C@]3(C)CC[C@]12C is reported as greater than 100 µM (cell growth or viability, SRB).
For O=C1C(Cl)=C(Cl)C(=O)c2c(O)ccc(O)c21, the IC50 was 8.07 µM (cell growth or viability, MTT).
With N#Cc1cccc(-c2ccc(=O)n(Cc3cccc(-c4ncc(OCC5CCN(CCCC(=O)Nc6cccc7c6C(=O)N(C6CCC(=O)NC6=O)C7=O)CC5)cn4)c3)n2)c1 (stereo not drawn) the IC50 was greater than 100 µM (cell growth or viability, CCK-8; 72 h).
The IC50 of COC(=O)CNC(=O)COc1ccc2c(C)cc(=O)oc2c1 is reported as 101 µM (cell growth or viability, MTT).
For CCn1c(-c2ccccc2)cs/c1=N/N=C(\C)c1c(O)c2ccccc2oc1=O, the IC50 was 86.9 µM (cell growth or viability, MTT; 48 h).
For Cc1ccc2nc(Cl)c(-c3nc4cc(C)c(C)cc4[nH]3)cc2c1, the IC50 was greater than 100 µM (cell growth or viability, MTT; 48 h).
COc1cc(-c2cc(=O)c3c(O)cc(OC4OC(COC5OC(C)C(O)C(O)C5O)C(O)C(O)C4O)cc3o2)ccc1O (stereo not drawn) gave an IC50 of greater than 100 µM (cell growth or viability, resazurin; 72 h).
The IC50 of CCCCSc1nc(N)c2c(F)c(C#N)c(F)c(F)c2n1 is reported as 34.1 µM (cell growth or viability, MTT; 96 h).
Cc1cc(C=O)cc(C)c1Oc1cc(Nc2ccc(C#N)cn2)nc2cnccc12 gave an IC50 of 23.8 ± 2.5 µM (48 h).
CCOc1cccc(C(=O)Nc2ccc(-c3nc4ccccc4[nH]3)cc2)c1 gave an IC50 of 12.8 µM (cell growth or viability, MTT).
With O=C(Nc1ccc(F)cc1)c1ccccc1-n1c(=O)[nH]c2ccccc2c1=O the IC50 was 14.2 µM (cell growth or viability, MTT; 24 h).
The IC50 of Cc1c(C(=O)/C=C/c2ccco2)nnn1-c1c(Cl)cc(Cl)cc1Cl is reported as 17.6 µM (cell growth or viability, MTT).
The IC50 of CC(=O)N[C@@H]1[C@@H](OC(C)=O)[C@H](OC(C)=O)[C@@H](COC(C)=O)O[C@H]1n1nc(-c2cc3ccccc3[nH]2)n(-c2ccccc2)c1=S is reported as 6.68 µM (cell growth or viability, MTT).
For COc1ccc2c(c1)/C(=N/NC(N)=S)C(=O)N2CCn1cnc2c(N)ncnc21, the IC50 was 29.5 µM (cell growth or viability, SRB; 72 h).
COc1ccc2nc(Cl)c(-c3nc4cc(F)ccc4[nH]3)cc2c1 gave an IC50 of greater than 100 µM (cell growth or viability, MTT; 48 h).
With CC(=O)[O-].O.[Cu+2].[O-]c1ccc(Br)cc1C=NCCN1CCOCC1 the IC50 was 22.7 µg/mL (cell viability, MTT; 72 h).
With CC(C)(C)c1cc2c(O)c(c1)Cc1cc(C(C)(C)C)cc(c1OCC(=O)NCc1cccnc1)Cc1cc(C(C)(C)C)cc(c1O)Cc1cc(C(C)(C)C)cc(c1OCC(=O)NCc1cccnc1)COC2 the IC50 was 8.8 µM (cell growth or viability, MTT; 72 h).
The IC50 of CCOC(=O)c1ccc(-n2c(N)c(C#N)c(SC)c(C#N)c2=O)cc1 is reported as 34.9 µM (cell growth or viability, MTT; 24 h).
CCN1C(=O)CS/C1=N/N=C(\C)c1c(O)c2ccccc2oc1=O has an IC50 of 93.8 µM (cell growth or viability, MTT; 48 h).
For CC(=NN=c1sc(C(=O)c2ccccc2)nn1-c1ccccc1)c1ccc(S(=O)(=O)N2CCC(C)CC2)cc1, the IC50 was 3.31 µM (cell growth or viability, MTT).
With [NH2][Pt]1([NH2])([Cl])([O]C(=O)C(Cl)Cl)[O]C(=O)C2(CC(=O)C2)C(=O)[O]1 the IC50 was 10.4 µM (cell growth or viability, MTT).
Oc1ccc2c(c1)[O][Pt-2]1([Cl])[N+](=C2)CC[NH+]1c1ccccc1 (stereo not drawn) has an IC50 of 77.2 ± 6.43 µM (cell viability, MTT; 48 h).
N#Cc1cccc(-c2ccc(=O)n(Cc3cccc(-c4ncc(OCC5CCN(CC(=O)N6CCN(CCNc7ccc8c(c7)C(=O)N(C7CCC(=O)NC7=O)C8=O)CC6)CC5)cn4)c3)n2)c1 (stereo not drawn) has an IC50 of 1.95 µM (cell growth or viability, CCK-8; 72 h).
C=C1C(=O)C23CCC4C(C)(C)CCCC4(C)C2C(O)CC1C3 (single isomer, unassigned) gave an IC50 of 4.2 µM (cell growth or viability, MTT).
For COc1ccc(-c2nnc(-c3ccccn3)[nH]2)cc1OC.COc1ccc(-c2nnc(-c3ccccn3)[nH]2)cc1OC.[Cu+2].[O-][Cl+3]([O-])([O-])[O-].[O-][Cl+3]([O-])([O-])[O-], the IC50 was 91.1 µM (cell growth or viability, MTT; 24 h).
For COc1cc(/C=C/C(=O)/C=C/c2cn(-c3ccccc3)nc2C(=O)O)cc(OC)c1O, the IC50 was greater than 25 µM (cell growth; 72 h).
The IC50 of COc1cc2c(=O)c(-c3ccc4c(c3)OCO4)coc2c2c1OC(C)(C)C=C2 is reported as 17.9 µM (cell growth or viability, MTT; 72 h).
N#CC[C@H](C1CCCC1)n1cc(-c2ncnc3[nH]ccc23)cn1 has an IC50 of greater than 25 µM (cell growth or viability, MTT; 72 h).
With COc1cc2c(=O)oc3c(OC)c(OC)cc4c(=O)oc(c1OC)c2c34 the IC50 was 78.9 µM (cell growth or viability, MTT; 48 h).
Brc1ccc(C(c2c[nH]c3ccccc23)c2c[nH]c3ccccc23)cc1 gave an IC50 of 5.24 µM (cell growth or viability, MTT; 24 h).
COc1ccc(-c2cc(-c3nnn(-c4ccc(Br)cc4)c3C)nc(N)c2C#N)cc1 has an IC50 of 2.34 µg/mL (cell growth or viability, MTT).
With C=CCc1cc(OC)c(OC(C)=O)c(OC)c1 the IC50 was greater than 50 µM (MTT; 24 h).
CCCCSc1nc(N)c2c(F)c(C#N)c(F)c(Cl)c2n1 gave an IC50 of 69.5 µM (cell growth or viability, MTT; 96 h).
With CC(C)Cn1cc(-c2nc(Nc3ccc(OCCCCCCC(=O)NO)cc3)ncc2F)nn1 the IC50 was 7.43 µM (cell growth or viability, SRB; 72 h).
